Measurements collected from several papers.
Protocols differ between the studies behind these lines. Several values in a cell are separate wells, animals, samples, runs or records. ± gives the spread as reported.
TDP1: Tyrosyl-DNA phosphodiesterase 1 (TDP1, Homo sapiens, UniProt Q9NUW8)
Chain of UniProt Q9NUW8 (whole entry, looked up): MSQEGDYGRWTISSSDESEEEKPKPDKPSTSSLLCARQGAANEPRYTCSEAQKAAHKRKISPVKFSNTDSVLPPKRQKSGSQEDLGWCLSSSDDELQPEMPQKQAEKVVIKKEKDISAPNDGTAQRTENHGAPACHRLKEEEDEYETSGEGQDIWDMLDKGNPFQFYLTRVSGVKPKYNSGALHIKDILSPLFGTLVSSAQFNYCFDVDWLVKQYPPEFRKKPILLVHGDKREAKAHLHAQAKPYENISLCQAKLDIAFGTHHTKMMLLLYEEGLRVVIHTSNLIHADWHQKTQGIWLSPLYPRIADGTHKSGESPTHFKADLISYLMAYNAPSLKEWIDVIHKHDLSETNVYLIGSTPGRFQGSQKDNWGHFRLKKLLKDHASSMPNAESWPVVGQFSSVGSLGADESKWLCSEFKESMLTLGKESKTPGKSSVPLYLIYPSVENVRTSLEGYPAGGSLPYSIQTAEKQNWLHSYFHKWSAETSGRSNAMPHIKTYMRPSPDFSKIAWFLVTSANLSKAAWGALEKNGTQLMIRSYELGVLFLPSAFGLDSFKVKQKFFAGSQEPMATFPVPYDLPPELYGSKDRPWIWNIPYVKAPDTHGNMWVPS
Chain of UniProt O15438 (whole entry, looked up): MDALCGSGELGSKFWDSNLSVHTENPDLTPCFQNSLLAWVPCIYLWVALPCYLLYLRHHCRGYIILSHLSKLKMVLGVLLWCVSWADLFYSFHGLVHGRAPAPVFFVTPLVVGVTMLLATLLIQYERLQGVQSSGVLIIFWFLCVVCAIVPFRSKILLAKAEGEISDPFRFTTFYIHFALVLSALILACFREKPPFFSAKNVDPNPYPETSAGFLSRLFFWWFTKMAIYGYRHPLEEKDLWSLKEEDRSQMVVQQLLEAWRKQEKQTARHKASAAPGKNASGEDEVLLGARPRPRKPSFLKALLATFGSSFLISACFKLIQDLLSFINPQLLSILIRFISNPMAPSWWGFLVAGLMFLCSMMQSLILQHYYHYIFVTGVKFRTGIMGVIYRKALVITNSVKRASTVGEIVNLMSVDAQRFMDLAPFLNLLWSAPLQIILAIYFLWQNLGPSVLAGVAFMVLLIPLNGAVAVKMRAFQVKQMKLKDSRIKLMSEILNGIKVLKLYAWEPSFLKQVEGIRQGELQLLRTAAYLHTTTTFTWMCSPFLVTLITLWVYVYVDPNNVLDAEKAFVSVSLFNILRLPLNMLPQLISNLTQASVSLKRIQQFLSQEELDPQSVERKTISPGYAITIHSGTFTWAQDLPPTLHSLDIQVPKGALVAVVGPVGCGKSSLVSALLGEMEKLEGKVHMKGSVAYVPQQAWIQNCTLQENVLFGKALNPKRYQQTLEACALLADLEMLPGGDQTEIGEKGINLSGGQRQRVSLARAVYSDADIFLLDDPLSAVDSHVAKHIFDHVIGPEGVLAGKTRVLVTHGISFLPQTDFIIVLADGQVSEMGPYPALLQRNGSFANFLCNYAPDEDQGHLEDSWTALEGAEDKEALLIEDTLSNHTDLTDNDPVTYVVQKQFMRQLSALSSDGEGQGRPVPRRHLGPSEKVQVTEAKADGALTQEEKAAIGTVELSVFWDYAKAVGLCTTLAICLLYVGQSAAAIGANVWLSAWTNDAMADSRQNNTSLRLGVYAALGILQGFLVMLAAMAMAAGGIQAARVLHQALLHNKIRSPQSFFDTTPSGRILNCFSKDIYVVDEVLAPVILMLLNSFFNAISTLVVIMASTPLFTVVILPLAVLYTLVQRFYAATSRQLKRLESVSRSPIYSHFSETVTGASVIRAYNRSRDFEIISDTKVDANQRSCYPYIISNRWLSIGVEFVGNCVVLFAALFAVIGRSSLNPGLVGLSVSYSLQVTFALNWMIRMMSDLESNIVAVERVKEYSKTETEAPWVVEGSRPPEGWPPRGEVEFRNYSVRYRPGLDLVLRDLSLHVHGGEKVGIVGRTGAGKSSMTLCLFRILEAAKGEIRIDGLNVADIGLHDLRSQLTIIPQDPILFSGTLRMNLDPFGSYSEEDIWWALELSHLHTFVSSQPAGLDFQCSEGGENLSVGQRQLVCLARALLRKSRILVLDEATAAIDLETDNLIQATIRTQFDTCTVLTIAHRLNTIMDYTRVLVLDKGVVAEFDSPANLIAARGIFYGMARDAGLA

Molecule	tested on	test	system	conditions	quantity	value
CC(C)C[C@@H](NC(=O)[C@@H](CC(C)C)NC(=O)[C@@H](CC(=O)O)NC(=O)[C@@H](CC(C)C)NC(=O)[C@@H](CC(C)C)NC(=O)[C@@H](CC(C)C)NC(=O)[C@H](NC(=O)[C@@H](CC(=O)O)NC(=O)[C@H](NC(=O)[C@H]1CCCN1C(=O)[C@@H](Cc1ccccc1)NC(=O)[C@@H](CC(C)C)NC(=O)[C@@H](CC(C)C)NC(=O)[C@@H](CC(=O)O)NC(=O)[C@@H](CC(C)C)NC(=O)[C@@H](Cc1ccc(O)cc1)NC(=O)[C@@H](C)NC(=O)[C@@H](CCCNC(=N)N)NC(=O)[C@@H](Cc1c[nH]c2ccccc12)NC(=O)[C@H]1CCCN1C(=O)[C@@H](CC(N)=O)NC(=O)[C@@H](CCC(N)=O)NC(=O)[C@@H](CC(=O)O)NC(=O)[C@@H](CC(=O)O)NC(=O)[C@@H](CSC1CC(=O)N(CCNC(=O)CN2CCN(CC(=O)O)CCN(CC(=O)O)CC2)C1=O)NC(=O)[C@@H](C)N)[C@H](C)O)[C@H](C)O)C(=O)N[C@H](Cc1c[nH]c2ccccc12)C(=O)O (stereo partly shown) [fluorine-18 labelled]	–	–	male nude mice, PC-3 xenograft, tumor	intravenous, 1 h	tissue uptake	3.05 %ID/g
CCCC[C@H](NC(=O)CCCCCCCNC(=O)CN1CCN(CC(=O)O)CCN(CC(=O)O)CC1)C(=O)N[C@H]1CC(=O)NCCCC[C@@H](C(N)=O)NC(=O)[C@H](Cc2c[nH]c3ccccc23)NC(=O)[C@H](CCCNC(=N)N)NC(=O)[C@@H](Cc2ccccc2)NC(=O)[C@H](Cc2c[nH]cn2)NC1=O [technetium-99m labelled]	–	–	C57 mouse, muscle	intravenous, 0.037 MBq, 24 h	tissue uptake	0.06 ± 0.02 %ID/g
ABCC3 (Homo sapiens, UniProt O15438)	O=C(c1ccc(OCCN2CCCCC2)cc1)c1c(-c2ccc(O[C@@H]3O[C@H](C(=O)O)[C@@H](O)[C@H](O)[C@H]3O)cc2)sc2cc(O[C@@H]3O[C@H](C(=O)O)[C@@H](O)[C@H](O)[C@H]3O)ccc12	steady-state kinetics	Sf9 vesicles	pH 7, 37 °C, not purified, together with: ATP	Km	42.5 µM
C=C1CC[C@H](OCCCNC(=O)CCOCCOCCOCCOCCOCCOCCOCCOCCOCCOCCOCCOCCOCCOCCOCCOCCOCCOCCOCCOCCOCCOCCOCCOCCOCCOCCOCCOCCOCCOCCOCCOCCOCCOCCOCCOCCNC(=O)CCN2C(=O)CC(SC[C@H](NC(=O)[C@H](Cc3ccccc3)NC(=O)[C@H](CC(N)=O)NC(=O)[C@H](Cc3c[nH]cn3)NC(=O)[C@@H](NC(=O)[C@H](CC(=O)O)NC(=O)[C@H](CCC(N)=O)NC(=O)[C@H](CC(C)C)NC(=O)[C@H](CCCCN)NC(=O)[C@H](CCCCN)NC(=O)[C@H](CCCNC(=N)N)NC(=O)[C@H](CC(C)C)NC(=O)[C@H](Cc3c[nH]c4ccccc34)NC(=O)[C@H](CCC(=O)O)NC(=O)[C@@H](NC(=O)[C@H](CCCNC(=N)N)NC(=O)[C@H](CCC(=O)O)NC(=O)[C@H](CCSC)NC(=O)[C@H](CO)NC(=O)[C@H](CC(N)=O)NC(=O)[C@H](CC(C)C)NC(=O)[C@H](Cc3c[nH]cn3)NC(=O)[C@H](CCCCN)NC(=O)CNC(=O)[C@H](CC(C)C)NC(=O)[C@H](CC(N)=O)NC(=O)[C@H](Cc3c[nH]cn3)NC(=O)[C@H](CCSC)NC(=O)[C@H](CC(C)C)NC(=O)[C@H](CCC(N)=O)NC(=O)[C@@H](NC(=O)[C@H](CCC(=O)O)NC(=O)[C@H](CO)NC(=O)[C@@H](NC(=O)[C@@H](N)CO)C(C)C)[C@@H](C)CC)C(C)C)C(C)C)C(=O)O)C2=O)C/C1=C/C=C1\CCC[C@]2(C)[C@@H]([C@H](C)CCCC(C)(C)O)CC[C@@H]12 (stereo partly shown)	–	–	male Sprague-Dawley rat, plasma	subcutaneous, 100 µg/kg, single dose	clearance	0.432 mL/min/kg
CCCCCC=NOCc1ccc(-c2nc3cc(-c4ccccc4)ccn3c2Nc2ccc(C(=O)O)cc2)cc1 (mixture of isomers)	TDP1	enzyme activity, inhibitor	–	100 µM, unpurified compound	inhibition	26%
C[C@@H](O)[C@@H]1NC(=O)[C@H](CCCCN)NC(=O)[C@@H](Cc2c[nH]c3ccccc23)NC(=O)[C@H](Cc2ccc(O)cc2)NC(=O)[C@@H](NC(=O)[C@@H](Cc2ccccc2)NC(=O)CN2CCN(CC(=O)O)CCN(CC(=O)O)CCN(CC(=O)O)CC2)CSSC[C@@H](C(=O)N[C@H](CO)[C@@H](C)O)NC1=O [gallium-67 labelled]	–	gamma counting	ICR mice, male, kidney	iv, 11 kBq/mouse, 3 h	tissue uptake	6.32 ± 1.13 %ID/g
CC(C)C[C@H](NC(=O)[C@H](Cc1ccc(O)cc1)NC(=O)[C@@H](CCCNC(=N)N)NC(=O)[C@@H](CO)NC(=O)[C@H](Cc1ccccc1)NC(=O)[C@H](CC1CCCCC1)NC(=O)[C@H](CC(=O)O)NC(=O)CN1CCN(CC(=O)O)CCN(CC(=O)O)CCN(CC(=O)O)CC1)C(=O)N[C@@H](Cc1c[nH]c2ccccc12)C(=O)N[C@@H](CO)C(=O)O [copper-64 labelled]	–	–	human, lung	concentration not given, 3 h	activity concentration	977 Bq/mL and 508 Bq/mL and 589 Bq/mL and 560 Bq/mL and 274 Bq/mL and 450 Bq/mL
O=C(O)c1ccc(Nc2c(-c3ccc(CON=Cc4cccc5c4OCO5)cc3)nc3cc(-c4ccccc4)ccn23)cc1	TDP1	enzyme activity, inhibitor	–	100 µM, unpurified compound	inhibition	44.8%
CC(C)C[C@H](NC(=O)[C@@H](CCCCNC(=O)[C@@H](Cc1ccccc1)NC(=O)CCCCCNC(=O)CN1CCN(CC(=O)O)CCN(CC(=O)O)CCN(CC(=O)O)CC1)NC(=O)[C@H](Cc1ccc(O)cc1)NC(=O)[C@H](CO)NC(=O)[C@H](Cc1c[nH]c2ccccc12)NC(=O)[C@H](Cc1c[nH]cn1)NC(=O)[C@@H]1CCC(=O)N1)C(=O)N[C@@H](CCCNC(=N)N)C(=O)N1CCC[C@H]1C(=O)NCC(N)=O [indium-111 labelled]	–	–	female athymic nude mice, tumor	intravenous, 0.037 MBq, 1 h	tissue uptake	0.38 ± 0.07 %ID/g
CCCC[C@H](NC(=O)COCCOCCNC(=O)CN1CCN(CC(=O)O)CCN(CC(=O)O)CC1)C(=O)N[C@H]1CC(=O)NCCCC[C@@H](C(N)=O)NC(=O)[C@H](Cc2c[nH]c3ccccc23)NC(=O)[C@H](CCCNC(=N)N)NC(=O)[C@@H](Cc2ccccc2)NC(=O)[C@H](Cc2c[nH]cn2)NC1=O [technetium-99m labelled]	–	–	C57 mouse, liver	intravenous, 0.037 MBq, 24 h	tissue uptake	0.02 ± 0.02 %ID/g

Repeated from above:
Molecule	tested on	test	system	conditions	quantity	value
CCCC[C@H](NC(=O)CCCCCCCNC(=O)CN1CCN(CC(=O)O)CCN(CC(=O)O)CC1)C(=O)N[C@H]1CC(=O)NCCCC[C@@H](C(N)=O)NC(=O)[C@H](Cc2c[nH]c3ccccc23)NC(=O)[C@H](CCCNC(=N)N)NC(=O)[C@@H](Cc2ccccc2)NC(=O)[C@H](Cc2c[nH]cn2)NC1=O [technetium-99m labelled]	–	–	C57 mouse, muscle	intravenous, 0.037 MBq, 24 h	tissue uptake	0.06 ± 0.02 %ID/g
ABCC3 (Homo sapiens, UniProt O15438)	O=C(c1ccc(OCCN2CCCCC2)cc1)c1c(-c2ccc(O[C@@H]3O[C@H](C(=O)O)[C@@H](O)[C@H](O)[C@H]3O)cc2)sc2cc(O[C@@H]3O[C@H](C(=O)O)[C@@H](O)[C@H](O)[C@H]3O)ccc12	steady-state kinetics	Sf9 vesicles	pH 7, 37 °C, not purified, together with: ATP	Km	42.5 µM
